{"data": "Values quoted from earlier work that unrelated publications cite", "note": "Numbered parts are unrelated; values within a part may stem from several laboratories. Several values in a cell are separate wells, animals, samples, runs or records."}
{"data": "Series 1", "Compound": "CN(C)CC/C=C1/c2ccccc2Sc2ccc(Cl)cc21", "cell line": "MCF7", "method": "microarray", "concentration": "concentration not given", "baseline": "DMSO"}
{"assay": "item: USO1 mRNA", "log2 fold change": 1.44}
{"assay": "item: TMEM41B mRNA", "log2 fold change": 1.62}
{"assay": "item: TBC1D17 mRNA", "log2 fold change": 1.34}
{"assay": "item: TRIB1 mRNA", "log2 fold change": 2.45}
{"assay": "item: ZNF165 mRNA", "log2 fold change": 1.86}
{"assay": "item: STX5 mRNA", "log2 fold change": 1.52}
{"assay": "item: TSFM mRNA", "log2 fold change": 0.77}
{"data": "Series 2", "organism": "Toxoplasma gondii", "read-out": "parasite growth", "concentration": "concentration not given", "notes": "published screen"}
{"SMILES": "COc1ccc(/C=C/C(=O)Nc2ccccc2C(=O)O)cc1OC", "activity class": "inactive"}
{"SMILES": "Fc1ccc([C@@H]2CCNC[C@H]2COc2ccc3c(c2)OCO3)cc1.O=C(O)/C=C\\C(=O)O", "activity class": "inactive"}
{"SMILES": "CNS(=O)(=O)Cc1ccc2[nH]cc(CCN(C)C)c2c1", "activity class": "inactive"}
{"SMILES": "COC(=O)C1=C(C)NC(C)=C(C(=O)OC(C)C)C1c1cccc2nonc12 (centres unmarked)", "activity class": "inactive"}
{"SMILES": "CC(Cc1ccccc1)(NC(=O)CN)c1ccccc1.Cl (centres unmarked)", "activity class": "inactive"}
{"SMILES": "Cn1nnc2c(C(N)=O)ncn2c1=O", "activity class": "inactive"}
{"SMILES": "CCC(C)(C)C(=O)O[C@H]1C[C@@H](C)C=C2C=C[C@H](C)[C@H](CC[C@@H]3C[C@@H](O)CC(=O)O3)[C@H]21", "activity class": "inactive"}
{"SMILES": "c1cnc(N2CCN(Cc3ccc4c(c3)OCO4)CC2)nc1", "activity class": "inactive"}
{"SMILES": "CC[C@]1(O)C[C@H]2CN(CCc3c([nH]c4ccccc34)[C@@](C(=O)OC)(c3cc4c(cc3OC)N(C=O)[C@H]3[C@@](O)(C(=O)OC)[C@H](OC(C)=O)[C@]5(CC)C=CCN6CC[C@]43[C@@H]65)C2)C1", "activity class": "inactive"}
{"SMILES": "CCC(=O)O[C@]1(C(=O)SCF)[C@H](C)C[C@H]2[C@@H]3C[C@H](F)C4=CC(=O)C=C[C@]4(C)[C@@]3(F)[C@@H](O)C[C@@]21C", "activity class": "inactive"}
{"SMILES": "COc1ccc2[nH]c([S+]([O-])Cc3ncc(C)c(OC)c3C)nc2c1 (centres unmarked)", "activity class": "inactive"}
{"SMILES": "COc1cccc2c1C(=O)c1c(O)c3c(c(O)c1C2=O)C[C@@](O)(C(=O)CO)C[C@@H]3O[C@H]1C[C@H](N)[C@H](O)[C@H](C)O1", "activity class": "inactive"}
{"SMILES": "CC(C)NCC(O)COc1cccc2[nH]ccc12 (centres unmarked)", "activity class": "inactive"}
{"SMILES": "COc1cc(-c2ccc(=O)[nH]n2)ccc1OC(F)F", "activity class": "inactive"}
{"SMILES": "CCC1(c2ccccc2)C(=O)NCNC1=O", "activity class": "inactive"}
{"SMILES": "CC(C)[N+]1(C)[C@@H]2CC[C@H]1C[C@@H](OC(=O)C(CO)c1ccccc1)C2 (some centres unmarked)", "activity class": "inactive"}
{"SMILES": "CCN1CCC[C@H]1CNC(=O)c1c(O)c(Cl)cc(Cl)c1OC", "activity class": "inactive"}
{"SMILES": "OCc1cc(C(O)CNCCCCCCOCCCCc2ccccc2)ccc1O (centres unmarked)", "activity class": "inactive"}
{"SMILES": "CC1=NS(=O)(=O)c2cc(Cl)ccc2N1", "activity class": "inactive"}
{"SMILES": "CC1=C(CC(=O)O)c2cc(F)ccc2/C1=C\\c1ccc([S+](C)[O-])cc1 (centres unmarked)", "activity class": "inactive"}
{"SMILES": "CCOC(=O)c1ccc(OC(=O)CCCCCN=C(N)N)cc1.CS(=O)(=O)O", "activity class": "inactive"}
{"SMILES": "CCCCN1CCCC1CNC(=O)c1cc(C#N)c2ccccc2c1OC (centres unmarked)", "activity class": "inactive"}
{"SMILES": "COc1cccc2c1C(=O)c1c(O)c3c(c(O)c1C2=O)C[C@@](O)(C(C)=O)C[C@@H]3O[C@H]1C[C@H](N)[C@H](O)[C@H](C)O1", "activity class": "inactive"}
{"SMILES": "COc1ccc(C2CNC(=O)C2)cc1OC1CCCC1 (centres unmarked)", "activity class": "inactive"}
{"SMILES": "CCOC(=O)c1ncn2c1CN(C)C(=O)c1cc(F)ccc1-2", "activity class": "inactive"}
{"data": "Series 3", "Compound": "CCOc1ccc(S(=O)(=O)Nc2ccc(Cl)cc2C#Cc2cnc(C(=O)O)cc2OC)c2ncccc12"}
{"target": "SLC16A7 and SLC16A8", "test system": "RT-4 (MCT2+/MCT3+)", "IC50": "638 nM"}
{"target": "human HTR6", "IC50": "4600 nM"}
{"target": "PTGER1", "IC50": "> 30000 nM"}
{"data": "Series 4", "SMILES": "C=CC(=O)N1CCN(c2ncnc3c(F)c(-c4c(O)cccc4F)c(Cl)cc23)CC1", "item": "phospho-ERK"}
{"cell line": "MIA PaCa-2", "conditions": "10 µM", "ERK phosphorylation": "5.77% and 7.15%"}
{"cell line": "MIA PaCa-2", "conditions": "3.33 µM", "ERK phosphorylation": "13.5% and 11.5%"}
{"cell line": "MIA PaCa-2", "conditions": "123 nM", "ERK phosphorylation": "87.8% and 93.6%"}
{"cell line": "NCI-H358", "conditions": "0.04575 µM", "ERK phosphorylation": "17.4% and 12.8%"}
{"cell line": "MIA PaCa-2", "conditions": "500 pM", "ERK phosphorylation": "101% and 107%"}
{"cell line": "NCI-H358", "conditions": "1 µM", "ERK phosphorylation": "2.52% and 2.32%"}
{"cell line": "NCI-H358", "conditions": "0.5229 µM", "ERK phosphorylation": "4.24% and 9.8%"}
{"cell line": "MIA PaCa-2", "conditions": "41.2 nM", "ERK phosphorylation": "97% and 94.4%"}
{"data": "Other studies, line by line", "DDR2": "Discoidin domain-containing receptor 2 (DDR2, Homo sapiens, UniProt Q16832)", "sequence of UniProt Q16832 (whole entry, looked up)": "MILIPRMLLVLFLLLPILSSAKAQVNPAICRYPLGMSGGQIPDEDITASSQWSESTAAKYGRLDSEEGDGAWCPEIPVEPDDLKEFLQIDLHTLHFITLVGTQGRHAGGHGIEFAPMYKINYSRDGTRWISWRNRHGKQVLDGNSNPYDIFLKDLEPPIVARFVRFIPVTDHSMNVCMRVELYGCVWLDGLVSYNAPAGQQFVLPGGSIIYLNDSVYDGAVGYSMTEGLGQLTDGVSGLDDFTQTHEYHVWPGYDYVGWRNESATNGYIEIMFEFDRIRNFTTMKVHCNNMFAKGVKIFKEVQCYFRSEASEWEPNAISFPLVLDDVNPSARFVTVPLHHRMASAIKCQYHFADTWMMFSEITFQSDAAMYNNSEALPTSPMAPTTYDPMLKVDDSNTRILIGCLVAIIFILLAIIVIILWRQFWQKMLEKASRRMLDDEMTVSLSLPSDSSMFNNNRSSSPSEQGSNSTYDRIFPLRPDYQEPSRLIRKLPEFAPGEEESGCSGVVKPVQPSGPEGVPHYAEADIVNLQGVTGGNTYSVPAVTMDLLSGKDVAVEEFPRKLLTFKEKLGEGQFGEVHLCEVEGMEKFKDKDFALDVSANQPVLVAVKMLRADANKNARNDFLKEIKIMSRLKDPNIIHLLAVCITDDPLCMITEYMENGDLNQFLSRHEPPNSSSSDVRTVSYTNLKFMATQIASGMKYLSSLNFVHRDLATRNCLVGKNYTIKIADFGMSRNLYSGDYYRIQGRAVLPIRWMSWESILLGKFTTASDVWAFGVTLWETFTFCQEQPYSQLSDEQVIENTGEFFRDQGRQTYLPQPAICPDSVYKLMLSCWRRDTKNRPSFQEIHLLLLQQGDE"}
{"SMILES": "Cc1ccc(C(=O)Nc2cccc(C(F)(F)F)c2)cc1Nc1cncc(C(N)=O)c1", "tested on": "DDR2", "assay": "enzyme activity, radiometric", "endpoint": "IC50", "result": "12 nM"}
{"SMILES": "CC[C@@H]1C(=O)N(C)[C@@H](CC)C(=O)N[C@@H](CC(C)C)C(=O)N2CCC[C@@H]2C(=O)N(C)[C@@H](Cc2ccccc2)C(=O)N[C@@H](CC(C)C)C(=O)N1C", "assay": "hydrocarbon/water", "conditions": "pH 7.4", "endpoint": "logD", "result": 1.74}
{"SMILES": "Cc1ccc2nc(NCCN)c3ncc(C)n3c2c1", "tested on": "IKK-alpha and IKK-beta", "assay": "cellular potency", "endpoint": "IC50", "result": "~4000 nM"}
{"SMILES": "COc1ccc(CN2C3CC2CN(c2ccc(-c4cc(OCC(C)(C)O)cn5ncc(C#N)c45)cn2)C3)cn1", "test system": "RET-positive NSCLC patients", "conditions": "dose not given", "endpoint": "patients with dose reduction", "result": "41%"}
{"SMILES": "CC(C)C[C@@H]1NC(=O)[C@H](Cc2ccccc2)NC(=O)[C@H]2CCCN2C(=O)[C@H](CC(C)C)NC(=O)[C@H](CC(C)C)NC(=O)[C@@H](CC(C)C)NC1=O", "assay": "hydrocarbon/water", "conditions": "pH 7.4", "endpoint": "logD", "result": 0.83}
{"SMILES": "Cc1cc(C)c(-n2ccn3nc(-c4cccnc4)cc23)cc1NC(=O)c1cc(C#N)cc(S(F)(F)(F)(F)F)c1", "tested on": "DDR2", "assay": "target binding, NanoBRET", "endpoint": "IC50", "result": "0.54 nM"}
{"SMILES": "CN(C)CC(c1ccc(O)cc1)C1(O)CCCCC1 (centres unmarked)", "tested on": "serotonin transporter", "endpoint": "IC50", "result": "15 nM"}
{"note": "Excerpt of the above (other studies, line by line):"}
{"SMILES": "Cc1ccc(C(=O)Nc2cccc(C(F)(F)F)c2)cc1Nc1cncc(C(N)=O)c1", "tested on": "DDR2", "assay": "enzyme activity, radiometric", "endpoint": "IC50", "result": "12 nM"}
{"SMILES": "CC[C@@H]1C(=O)N(C)[C@@H](CC)C(=O)N[C@@H](CC(C)C)C(=O)N2CCC[C@@H]2C(=O)N(C)[C@@H](Cc2ccccc2)C(=O)N[C@@H](CC(C)C)C(=O)N1C", "assay": "hydrocarbon/water", "conditions": "pH 7.4", "endpoint": "logD", "result": 1.74}
{"SMILES": "Cc1ccc2nc(NCCN)c3ncc(C)n3c2c1", "tested on": "IKK-alpha and IKK-beta", "assay": "cellular potency", "endpoint": "IC50", "result": "~4000 nM"}
{"SMILES": "COc1ccc(CN2C3CC2CN(c2ccc(-c4cc(OCC(C)(C)O)cn5ncc(C#N)c45)cn2)C3)cn1", "test system": "RET-positive NSCLC patients", "conditions": "dose not given", "endpoint": "patients with dose reduction", "result": "41%"}
{"SMILES": "CC(C)C[C@@H]1NC(=O)[C@H](Cc2ccccc2)NC(=O)[C@H]2CCCN2C(=O)[C@H](CC(C)C)NC(=O)[C@H](CC(C)C)NC(=O)[C@@H](CC(C)C)NC1=O", "assay": "hydrocarbon/water", "conditions": "pH 7.4", "endpoint": "logD", "result": 0.83}
